Assay results from different studies.
Parts stem from different laboratories: compare values within a part only. Changes are numbered by the printed parent chain.

Sample 1
Target: vanadate, free oxyanion
Method: microfluidic competitive inhibition
Medium: in vitro, cell-free expressed
Concentration: not given
Setting: derived from inhibition constants, unchanged parent 676 nM
Reading: lower = stronger binding
Starting sequence: PafA, mature enzyme, eGFP fusion (Elizabethkingia meningoseptica, UniProt Q9KJX5); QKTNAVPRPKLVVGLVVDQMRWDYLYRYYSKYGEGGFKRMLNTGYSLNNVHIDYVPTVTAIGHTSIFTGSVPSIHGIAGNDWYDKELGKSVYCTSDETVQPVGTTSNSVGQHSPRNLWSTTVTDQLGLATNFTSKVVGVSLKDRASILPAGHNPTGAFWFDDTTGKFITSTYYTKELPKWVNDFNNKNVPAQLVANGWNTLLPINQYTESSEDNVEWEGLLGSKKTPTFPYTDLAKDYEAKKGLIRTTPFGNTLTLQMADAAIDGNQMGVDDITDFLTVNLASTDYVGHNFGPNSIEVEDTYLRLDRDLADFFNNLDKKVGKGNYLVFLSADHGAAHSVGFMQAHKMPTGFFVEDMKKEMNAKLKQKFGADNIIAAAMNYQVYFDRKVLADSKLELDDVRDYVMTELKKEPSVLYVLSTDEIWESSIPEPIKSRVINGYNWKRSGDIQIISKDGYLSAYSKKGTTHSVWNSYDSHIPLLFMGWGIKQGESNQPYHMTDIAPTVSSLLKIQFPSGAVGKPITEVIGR
Change | oxyanion analog dissociation constant [µM]
T247G | 0.584
G288V | 0.803
Q206V | 0.677
Y402V | 0.56
S170G | 0.346
S223G | 0.644
S467G | 0.442
N188V | 0.545
G14V | 0.708
I427G | 3.32
S457V | 0.783
K461G | 1.16
D23G | 1.02
Q206G | 0.509
T464V | 0.671
F291V | 1
L256G | 3.77
L414G | 0.555
R27V | 1.06
K387V | 1.01
D23V | 1.27
P249G | 1.32
G110V | 2.28
A375G | 0.586
G243A | 0.599

Sample 2
Target: POU domain, class 5, transcription factor 1, POU domain (Pou5f1, Mus musculus, UniProt P20263, residues 131-289)
Chain of UniProt P20263 (131-289, looked up): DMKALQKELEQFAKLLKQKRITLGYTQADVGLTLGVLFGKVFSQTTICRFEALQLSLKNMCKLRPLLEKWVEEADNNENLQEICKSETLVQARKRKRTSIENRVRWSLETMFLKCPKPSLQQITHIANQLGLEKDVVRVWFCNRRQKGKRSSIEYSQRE
Method: Spec-seq
Molecule type: double-stranded DNA, one strand shown
Medium: in vitro
Concentration: not given
Setting: whole probe, mean of replicates
Relative to: not given
Reading: lower = stronger binding
Shared flanks, not repeated: GAGTCGTCTCGTCAGCAC … CCGTAGAGCACTCAGGTC
Oligonucleotide | relative binding energy [ln ratio]
ATGCGTCT | 0.244
ATGCACCC | 0.161
ATATTCAT | -1.18
ATTGCCAT | 0.444
TCGCTAAT | 0.278
ATGCGCGC | 0.34
ATTACTAT | 0.214
ACCGTAAT | 0.737

Sample 3
Target: RING finger protein unkempt homolog, zinc fingers 1-6, GST-SBP tag (UNK, Homo sapiens, UniProt Q9C0B0, residues 30-357)
Method: RNA Bind-n-Seq
Molecule type: RNA
Medium: in vitro
Concentration: not given
Setting: RNA with constant flanks, human and mouse sites, ends assumed
Relative to: input RNA pool
Reading: higher = stronger binding
Shared flanks, not repeated: GGGAGUUCUACAGUCCGACGAUC … CAACAGAGGAUUGAGCAUCA
Target sequence (chain): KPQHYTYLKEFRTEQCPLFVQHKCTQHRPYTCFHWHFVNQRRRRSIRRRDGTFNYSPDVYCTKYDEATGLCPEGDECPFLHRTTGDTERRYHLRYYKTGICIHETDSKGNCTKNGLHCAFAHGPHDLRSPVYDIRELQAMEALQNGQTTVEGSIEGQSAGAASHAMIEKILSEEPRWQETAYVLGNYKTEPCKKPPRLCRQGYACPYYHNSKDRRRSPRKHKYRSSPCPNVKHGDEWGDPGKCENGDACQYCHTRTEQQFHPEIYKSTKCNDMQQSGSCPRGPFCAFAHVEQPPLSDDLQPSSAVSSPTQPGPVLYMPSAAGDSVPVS
Oligonucleotide | bound/input enrichment
GGAGCAGAUCCCGAGGCAGGCUUUGCUCAGCCUCCGACGAGGGCUGGCCCUUUGGAAGGCGCCUUCAACAGCCGGACCAGACAGGCCACCAUGACCGAGAAUUCCACGUCCGCCCCUGCG | 0.0608 ratio
GCCCCCAGAAGACCCAUAGAAAUGAGAGGCCUGAGGUCUACAAGUCGCUGCUAGAAAUAUUUUAGCCUCUCCAAAGCCCAGAAUGCAGCCCCGACCCAAGUUUGUAAGGGUUCUGGGUGC | 1.24 ratio
CUUGGUCAAGACACACUGACGGUACCUACAGAAUACUGGACAUACGGAUUCAGAAUCCAUAAGGCUUUAUCACCUUGAAUCAAGGAUUUAUUUGAUAUCAUCCUCGGUCUUUACUUCCUA | 0.183 ratio
GAGGGGGGAGGGGAGGGAGCCAAGGGAUGGACAUCUUGUUUUUGUUUUGGCUUUUUUUUUUUUUGUUUCAGUUUUUUUUCUCUAUGAAUAAAUGUCACUUUUUGAGGCAAAAAGAAGGAA | 1.69 ratio
CAUUCAAAAUGGGUAUUCUUGAUUUCCUCAGAACUGAUAAAAAAUAAUGCAACAUCACCAACAGAUCCUGUUAUUUCCUCUGCAGGAUACAGUUCAAUAUGAUGCAUGAAAAAUGCUCCA | 0.194 ratio
CUGCUUUUGAUCCUGCCUGUUGUUGAAGCAGUGGAAGCUGGAGACGCGAUUGCACUCUUAUUAGGUGUGGUUCUCAGCAUUACCGGCAUCUGUGCUUGCUUGGGGAUAUACGCAAGAAAG | 0.957 ratio
AAGUCCACAUUUAGUUUUAGUAUGACAAAACCAUCUGAGAAGGAAUCUGAACAGCCAGCAAAAGCCACUUUUGCCUUUGGAGCUCAAACUAGUACUACAGCUGAUCAAGGUGCAGCAAAG | 1.16 ratio
UUAAUUAAGCAUUUAUUUUAGUUGUUUUCAUCCAUUCAAGCAAAAUGAAUAAGCAGCAUUUUUCAUUGCACUUAAAAAUGUAAAAUACCUGCAUGCCACUAAUCUGUAACAUUUUACCAG | 1.03 ratio

Sample 4
Target: CCNF, cyclin fold, Cln2 fusion (human)
Method: yeast growth competition, sequencing
Medium: yeast
Setting: strong parent motif
Relative to: not given
Reading: higher = stronger binding
Starting sequence: viral docking peptide; KGVKRKLFAEDSS; partner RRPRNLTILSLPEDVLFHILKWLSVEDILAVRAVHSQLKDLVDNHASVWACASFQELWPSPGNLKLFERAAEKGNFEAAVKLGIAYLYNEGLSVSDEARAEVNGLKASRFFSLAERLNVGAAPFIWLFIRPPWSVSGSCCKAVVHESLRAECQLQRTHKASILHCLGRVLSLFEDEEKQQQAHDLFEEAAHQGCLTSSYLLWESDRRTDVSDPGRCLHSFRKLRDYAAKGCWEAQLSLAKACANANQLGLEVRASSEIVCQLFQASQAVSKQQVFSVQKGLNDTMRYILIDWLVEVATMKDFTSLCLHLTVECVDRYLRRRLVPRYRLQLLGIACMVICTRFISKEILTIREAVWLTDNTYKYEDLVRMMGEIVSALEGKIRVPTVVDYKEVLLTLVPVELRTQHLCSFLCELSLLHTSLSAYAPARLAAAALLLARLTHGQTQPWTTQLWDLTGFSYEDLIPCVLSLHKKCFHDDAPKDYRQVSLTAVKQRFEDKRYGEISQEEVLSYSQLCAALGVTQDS
Change | normalised enrichment score
KGVKRVLFAEDSS [K6V] | 7.68
KGVKRKLFAIDSS [E10I] | 7.55
KGVKRKLFAEFSS [D11F] | 8.61
KGWKRKLFAEDSS [V3W] | 2.99

Sample 5
Target: Transcriptional repressor CTCF (CTCF, Homo sapiens, UniProt P49711, residues 1-727, full length assumed)
Method: protein-binding microarray
Molecule type: double-stranded DNA, one strand shown
Medium: in vitro
Concentration: not given
Setting: k-mer, scored over probes, only values ≥0.25
Reading: higher = stronger binding
Target sequence (chain): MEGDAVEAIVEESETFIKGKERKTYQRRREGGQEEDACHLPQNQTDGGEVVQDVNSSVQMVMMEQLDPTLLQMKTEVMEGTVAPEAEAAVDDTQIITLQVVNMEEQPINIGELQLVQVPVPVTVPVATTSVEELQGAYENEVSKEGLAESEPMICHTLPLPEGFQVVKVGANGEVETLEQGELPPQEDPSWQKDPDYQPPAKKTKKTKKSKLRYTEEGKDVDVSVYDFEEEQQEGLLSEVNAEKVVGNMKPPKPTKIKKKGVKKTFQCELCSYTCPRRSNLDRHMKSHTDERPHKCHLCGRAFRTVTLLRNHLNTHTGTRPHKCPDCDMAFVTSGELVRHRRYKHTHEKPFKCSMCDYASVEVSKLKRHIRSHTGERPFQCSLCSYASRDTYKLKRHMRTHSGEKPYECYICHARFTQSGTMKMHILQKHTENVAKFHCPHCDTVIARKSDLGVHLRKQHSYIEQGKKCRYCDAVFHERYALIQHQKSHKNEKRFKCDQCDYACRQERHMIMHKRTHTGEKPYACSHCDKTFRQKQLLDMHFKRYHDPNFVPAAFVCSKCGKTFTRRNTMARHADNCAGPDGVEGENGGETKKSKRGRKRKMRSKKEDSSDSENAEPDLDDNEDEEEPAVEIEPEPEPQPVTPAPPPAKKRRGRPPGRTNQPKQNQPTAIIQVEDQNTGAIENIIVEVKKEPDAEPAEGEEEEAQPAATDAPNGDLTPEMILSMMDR
Oligonucleotide | E-score
AGAAATAA | 0.26
TAACACAA | 0.303
TAGGTGAA | 0.325
AATTTATG | 0.285
GTTGTACA | 0.283
TGTATAAA | 0.257
GAAAATTA | 0.287
AAGATATA | 0.263

Excerpt of the above (sample 3):
Oligonucleotide | bound/input enrichment
GCCCCCAGAAGACCCAUAGAAAUGAGAGGCCUGAGGUCUACAAGUCGCUGCUAGAAAUAUUUUAGCCUCUCCAAAGCCCAGAAUGCAGCCCCGACCCAAGUUUGUAAGGGUUCUGGGUGC | 1.24 ratio
GAGGGGGGAGGGGAGGGAGCCAAGGGAUGGACAUCUUGUUUUUGUUUUGGCUUUUUUUUUUUUUGUUUCAGUUUUUUUUCUCUAUGAAUAAAUGUCACUUUUUGAGGCAAAAAGAAGGAA | 1.69 ratio
CUGCUUUUGAUCCUGCCUGUUGUUGAAGCAGUGGAAGCUGGAGACGCGAUUGCACUCUUAUUAGGUGUGGUUCUCAGCAUUACCGGCAUCUGUGCUUGCUUGGGGAUAUACGCAAGAAAG | 0.957 ratio
CUUGGUCAAGACACACUGACGGUACCUACAGAAUACUGGACAUACGGAUUCAGAAUCCAUAAGGCUUUAUCACCUUGAAUCAAGGAUUUAUUUGAUAUCAUCCUCGGUCUUUACUUCCUA | 0.183 ratio
UUAAUUAAGCAUUUAUUUUAGUUGUUUUCAUCCAUUCAAGCAAAAUGAAUAAGCAGCAUUUUUCAUUGCACUUAAAAAUGUAAAAUACCUGCAUGCCACUAAUCUGUAACAUUUUACCAG | 1.03 ratio
GGAGCAGAUCCCGAGGCAGGCUUUGCUCAGCCUCCGACGAGGGCUGGCCCUUUGGAAGGCGCCUUCAACAGCCGGACCAGACAGGCCACCAUGACCGAGAAUUCCACGUCCGCCCCUGCG | 0.0608 ratio
CAUUCAAAAUGGGUAUUCUUGAUUUCCUCAGAACUGAUAAAAAAUAAUGCAACAUCACCAACAGAUCCUGUUAUUUCCUCUGCAGGAUACAGUUCAAUAUGAUGCAUGAAAAAUGCUCCA | 0.194 ratio
